{"data": "Measured values collected from several papers", "note": "Each numbered part is a random draw from the data of one study; scales do not carry over between parts."}
{"data": "Series 1", "target": "RNA binding protein fox-1 homolog 2, RRM domain, GST-SBP tag (RBFOX2, Homo sapiens, UniProt O43251-10, residues 100-194)", "method": "RNA Bind-n-Seq", "molecule type": "RNA", "matrix": "in vitro", "tested at": "365 nM", "notes": "natural RNA segment, single round, ends assumed", "relative to": "no-protein control", "direction": "higher = stronger binding", "all sequences stand within": "GGGAGUUCUACAGUCCGACGAUC … UGGAAUUCUCGGGUGCCAA", "Residues (chain)": "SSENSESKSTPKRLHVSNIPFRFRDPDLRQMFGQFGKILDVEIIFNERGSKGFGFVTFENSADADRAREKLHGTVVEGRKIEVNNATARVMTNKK"}
{"Oligonucleotide": "AAAACACGUUGCCUGUUUUCAGUUAACACUGGUAAUGCCAUUUUAAUAUAUGGCUUUUUCAAAUCAGUUCAGUGAAAAUAGUACAGAUUUAGGUUUACAUAACUACUCUG", "RBNS enrichment (R)": 0.256}
{"Oligonucleotide": "AGCCUGGUCUAAAAAGGAAGUUCCAAGACUGCCAGGGCCACACAGAGGAAAAAAAAAACCCUCUAGAAAAACAAAAAUGAAGACAGGAUCUCAUGUAUCGUAGAUUGGCC", "RBNS enrichment (R)": 0.449}
{"Oligonucleotide": "UUUAUGAAUUUUAUAUUCCGUGAAUGUAUAUUGUCUUGUAAUGUUGCAUAGUGUUCACUUUUUAUAGCUGUCCUUUAUUCUAAACAGUAAAGUGGUUUUAUUUCUAUCAC", "RBNS enrichment (R)": 1.2}
{"Oligonucleotide": "ACUAUAAUAGAGUUAUUUAAUUUUAAUUUGUUGAAUUAUUAGUUACCACUGUCAUUUCUUCAGCUAUGGAUAUGUGGCUGAUGUUGGGGAGACGGACCUCAGUGUGUUUU", "RBNS enrichment (R)": 0.791}
{"Oligonucleotide": "GCAUGGAAAGGCAAUAUCUCUGGUGGAAAAAACUCGUCUACAUCGACCUCCGUUUGUACAUUCCAUCACACCCAGCAAUAGCUGUACAUUGUAGUCAGCAACCAUUUUAC", "RBNS enrichment (R)": 3.04}
{"data": "Series 2", "target": "Histone acetyltransferase KAT6A, winged helix 2, GST fusion (KAT6A, Homo sapiens, UniProt Q92794, residues 85-181)", "method": "protein binding microarray", "molecule type": "double-stranded DNA, one strand shown", "matrix": "in vitro", "tested at": "not given", "notes": "8-mer, flanks averaged, mean of 2 arrays, mostly near background", "relative to": "not given", "direction": "higher = stronger binding", "Construct (chain)": "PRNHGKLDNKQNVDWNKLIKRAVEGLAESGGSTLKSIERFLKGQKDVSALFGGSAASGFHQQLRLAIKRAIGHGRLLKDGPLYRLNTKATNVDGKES"}
{"Oligonucleotide": "CGCGGAAC", "E-score": 0.102}
{"Oligonucleotide": "CTGAAAAA", "E-score": 0.122}
{"Oligonucleotide": "CATACTGC", "E-score": 0.0518}
{"Oligonucleotide": "CACAGGCA", "E-score": -0.106}
{"data": "Series 3", "target": "Sal-like protein 4, full length isoform B (SALL4, Homo sapiens, UniProt Q9UJQ4-2, residues 1-616)", "method": "universal PBM", "molecule type": "double-stranded DNA, one strand shown", "matrix": "in vitro", "tested at": "not given", "notes": "8-mer, flanks averaged, mean of replicates", "direction": "higher = stronger binding", "Construct (chain)": "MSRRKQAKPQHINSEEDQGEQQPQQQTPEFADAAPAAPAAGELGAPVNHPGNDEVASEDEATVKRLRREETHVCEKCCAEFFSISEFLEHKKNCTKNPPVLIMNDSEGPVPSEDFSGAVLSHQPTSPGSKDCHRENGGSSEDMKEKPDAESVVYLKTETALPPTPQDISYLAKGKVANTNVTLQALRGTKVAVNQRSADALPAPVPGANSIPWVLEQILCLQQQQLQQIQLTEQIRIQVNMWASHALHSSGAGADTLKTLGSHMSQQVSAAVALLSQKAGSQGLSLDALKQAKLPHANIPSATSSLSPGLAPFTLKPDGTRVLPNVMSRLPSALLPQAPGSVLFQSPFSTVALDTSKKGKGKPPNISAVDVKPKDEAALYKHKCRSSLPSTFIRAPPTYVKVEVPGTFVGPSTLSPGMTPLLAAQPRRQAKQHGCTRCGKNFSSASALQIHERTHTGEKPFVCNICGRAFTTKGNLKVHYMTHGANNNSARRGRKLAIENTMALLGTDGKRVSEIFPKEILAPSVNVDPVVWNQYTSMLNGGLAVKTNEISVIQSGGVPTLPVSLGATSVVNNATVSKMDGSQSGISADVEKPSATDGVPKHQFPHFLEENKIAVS"}
{"Oligonucleotide": "TGCGCGAA", "E-score": -0.0201}
{"Oligonucleotide": "GACGCCGA", "E-score": -0.143}
{"Oligonucleotide": "CCCTTCAG", "E-score": -0.146}
{"Oligonucleotide": "ACCTACCA", "E-score": -0.0836}
{"Oligonucleotide": "CACCGCCC", "E-score": -0.186}
{"data": "Further values, each from its own experiment"}
{"Molecule": "PhoQ, residues 284 288 289 292 302 303 TLMATV", "target": "PhoP, residues 12 14 15 18 19 NFCKL (Escherichia coli, UniProt P23836)", "test": "Sort-seq, refers to: YFP reporter", "system": "E. coli", "setting": "PhoQ-PhoP variant library, together with: 10 µM Mg2+", "scale": "relative to: high Mg2+ state, higher = stronger signaling", "endpoint": "fold induction", "value": 14.3}
{"note": "Repeated from above (series 1):"}
{"Oligonucleotide": "UUUAUGAAUUUUAUAUUCCGUGAAUGUAUAUUGUCUUGUAAUGUUGCAUAGUGUUCACUUUUUAUAGCUGUCCUUUAUUCUAAACAGUAAAGUGGUUUUAUUUCUAUCAC", "RBNS enrichment (R)": 1.2}
{"Oligonucleotide": "GCAUGGAAAGGCAAUAUCUCUGGUGGAAAAAACUCGUCUACAUCGACCUCCGUUUGUACAUUCCAUCACACCCAGCAAUAGCUGUACAUUGUAGUCAGCAACCAUUUUAC", "RBNS enrichment (R)": 3.04}
